Experimental data collected from several papers.
± marks the error that the study gave.

Structure (SMILES) = C[S]1CC[S]2CC[P](CO)(CO)[99Tc+]12.[C-]#[O+].[C-]#[O+].[C-]#[O+]; test system = female CF-1 mouse, carcass; conditions = intravenous, 24 h; quantity = tissue uptake; result = 1 %ID
Structure (SMILES) = N=C(N)NCc1ccc(C(=O)NCCCC[C@H](NC(=O)CCCCCCC(=O)NCCCC[C@H](NC(=O)N[C@@H](CCC(=O)O)C(=O)O)C(=O)O)C(=O)O)cc1[131I]; test system = SCID mouse, PC-3 xenografts, lungs; conditions = 2 h; quantity = tissue uptake; result = 0.81 ± 0.37 %ID/g
Structure (SMILES) = C=Cc1cc(O)cc2nc(-c3ccc(O)c([76Br])c3)oc12; test system = female C57BL/6 mouse, spleen; conditions = 1 h, low dose; quantity = tissue uptake; result = 0.13 ± 0.01 %ID/g
Structure (SMILES) = O=C(O)CC[C@H](NC(=O)O[C@@H](CCCCNC(=O)c1ccc([18F])cc1)C(=O)O)C(=O)O; test system = mouse, PC-3 PIP/flu xenografts, liver; conditions = 90 min; quantity = tissue uptake; result = 11 ± 0.87 %ID/g
Structure (SMILES) = N=C(N)NCc1ccc(C(=O)NCCCC[C@H](NC(=O)N[C@@H](CCC(=O)O)C(=O)O)C(=O)O)cc1[131I]; test system = SCID mouse, PC-3 xenografts, brain; conditions = 21 h; quantity = tissue uptake; result = 0.03 ± 0.01 %ID/g
Structure (SMILES) = COC(=O)C[C@](O)(CCCC(C)(C)OC(C)=O)C(=O)O[C@@H]1C(OC)=C[C@]23CCCN2CCc2cc4c(cc2[C@H]13)OCO4; test system = CD1 mouse, stomach; conditions = subcutaneous, 1 mg/kg, 2 h; quantity = tissue concentration; result = 97.8 ng/mL
Structure (SMILES) = CCCCCCCC(=O)NCCCC[C@H](NC(=O)[C@H](Cc1ccccc1)NC(=O)[C@@H](CCCNC(=N)N)NC(=O)[C@@H](N)Cc1ccc(O)cc1)C(N)=O; test system = CD-1 mouse, male, kidney; conditions = intravenous, 3 mg/kg, 180 min; quantity = tissue concentration; result = 631 ± 258 ng/g
Structure (SMILES) = N=C(N)NCc1ccc(C(=O)NCCCC[C@H](NC(=O)N[C@@H](CCC(=O)O)C(=O)O)C(=O)O)cc1[211At]; test system = SCID mouse, PC-3 xenografts, stomach; conditions = 14 h; quantity = tissue uptake; result = 2.24 ± 1.08 %ID/g
Structure (SMILES) = Cn1cc(-c2cccc(CN3CCC4(CC3)COc3c4ccc4c3CN([C@H]3CCC(=O)NC3=O)C4=O)c2)cn1; test system = mouse Crbn I391V, spleen; conditions = oral, 100 mg/kg, 6 h; quantity = tissue concentration; result = 7180 ng/g
Structure (SMILES) = CN[C@](C)(C[18F])C(=O)O; test system = SCID mouse SK-OV-3 xenograft, spleen; conditions = 30 min, post injection; quantity = tissue uptake; result = 9.3 ± 1.2 %ID/g

A few entries again:
Structure (SMILES) = COC(=O)C[C@](O)(CCCC(C)(C)OC(C)=O)C(=O)O[C@@H]1C(OC)=C[C@]23CCCN2CCc2cc4c(cc2[C@H]13)OCO4; test system = CD1 mouse, stomach; conditions = subcutaneous, 1 mg/kg, 2 h; quantity = tissue concentration; result = 97.8 ng/mL
